Experimental data of several laboratories.
A part holds a random share of what one study measured. Changes are numbered by the printed parent chain.
Chain of UniProt Q96RG2 (whole entry, looked up): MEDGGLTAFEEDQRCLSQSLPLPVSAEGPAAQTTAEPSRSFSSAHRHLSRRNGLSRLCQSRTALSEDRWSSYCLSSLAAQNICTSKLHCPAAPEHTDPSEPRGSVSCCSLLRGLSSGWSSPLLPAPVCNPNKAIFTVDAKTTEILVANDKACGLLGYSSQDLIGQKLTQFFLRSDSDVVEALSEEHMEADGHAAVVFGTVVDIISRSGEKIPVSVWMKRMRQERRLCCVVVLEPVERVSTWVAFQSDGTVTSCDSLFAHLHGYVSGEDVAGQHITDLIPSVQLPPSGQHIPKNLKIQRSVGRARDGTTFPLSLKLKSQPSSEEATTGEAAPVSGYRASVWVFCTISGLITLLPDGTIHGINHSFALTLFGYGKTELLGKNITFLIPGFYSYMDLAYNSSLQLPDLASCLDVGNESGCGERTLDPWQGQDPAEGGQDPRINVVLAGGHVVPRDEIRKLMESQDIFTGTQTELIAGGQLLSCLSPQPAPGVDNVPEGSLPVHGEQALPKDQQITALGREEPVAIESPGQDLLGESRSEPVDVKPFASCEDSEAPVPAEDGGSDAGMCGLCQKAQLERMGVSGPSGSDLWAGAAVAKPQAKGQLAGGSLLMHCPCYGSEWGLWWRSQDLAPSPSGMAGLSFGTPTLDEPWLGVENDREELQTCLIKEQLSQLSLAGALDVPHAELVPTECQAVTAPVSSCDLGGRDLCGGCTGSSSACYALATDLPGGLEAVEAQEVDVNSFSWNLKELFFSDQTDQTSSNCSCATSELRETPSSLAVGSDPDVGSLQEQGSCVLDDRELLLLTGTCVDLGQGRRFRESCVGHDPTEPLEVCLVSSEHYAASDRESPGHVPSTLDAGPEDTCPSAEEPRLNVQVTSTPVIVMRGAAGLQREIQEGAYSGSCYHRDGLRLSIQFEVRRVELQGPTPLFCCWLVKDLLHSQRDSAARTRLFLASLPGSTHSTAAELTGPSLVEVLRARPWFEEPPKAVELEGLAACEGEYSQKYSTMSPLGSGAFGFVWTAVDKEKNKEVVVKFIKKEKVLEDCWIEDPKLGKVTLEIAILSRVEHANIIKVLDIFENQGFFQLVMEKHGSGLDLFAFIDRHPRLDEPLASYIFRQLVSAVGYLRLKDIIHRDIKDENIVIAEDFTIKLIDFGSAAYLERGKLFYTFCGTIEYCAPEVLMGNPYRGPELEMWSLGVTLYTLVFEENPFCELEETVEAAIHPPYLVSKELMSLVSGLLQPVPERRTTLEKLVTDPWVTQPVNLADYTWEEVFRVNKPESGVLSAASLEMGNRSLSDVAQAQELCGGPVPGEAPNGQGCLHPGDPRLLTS

Set 1
Target: UDP-N-acetylglucosamine--peptide N-acetylglucosaminyltransferase 110 kDa subunit (OGT, Homo sapiens, UniProt O15294)
Chain of UniProt O15294 (whole entry, looked up): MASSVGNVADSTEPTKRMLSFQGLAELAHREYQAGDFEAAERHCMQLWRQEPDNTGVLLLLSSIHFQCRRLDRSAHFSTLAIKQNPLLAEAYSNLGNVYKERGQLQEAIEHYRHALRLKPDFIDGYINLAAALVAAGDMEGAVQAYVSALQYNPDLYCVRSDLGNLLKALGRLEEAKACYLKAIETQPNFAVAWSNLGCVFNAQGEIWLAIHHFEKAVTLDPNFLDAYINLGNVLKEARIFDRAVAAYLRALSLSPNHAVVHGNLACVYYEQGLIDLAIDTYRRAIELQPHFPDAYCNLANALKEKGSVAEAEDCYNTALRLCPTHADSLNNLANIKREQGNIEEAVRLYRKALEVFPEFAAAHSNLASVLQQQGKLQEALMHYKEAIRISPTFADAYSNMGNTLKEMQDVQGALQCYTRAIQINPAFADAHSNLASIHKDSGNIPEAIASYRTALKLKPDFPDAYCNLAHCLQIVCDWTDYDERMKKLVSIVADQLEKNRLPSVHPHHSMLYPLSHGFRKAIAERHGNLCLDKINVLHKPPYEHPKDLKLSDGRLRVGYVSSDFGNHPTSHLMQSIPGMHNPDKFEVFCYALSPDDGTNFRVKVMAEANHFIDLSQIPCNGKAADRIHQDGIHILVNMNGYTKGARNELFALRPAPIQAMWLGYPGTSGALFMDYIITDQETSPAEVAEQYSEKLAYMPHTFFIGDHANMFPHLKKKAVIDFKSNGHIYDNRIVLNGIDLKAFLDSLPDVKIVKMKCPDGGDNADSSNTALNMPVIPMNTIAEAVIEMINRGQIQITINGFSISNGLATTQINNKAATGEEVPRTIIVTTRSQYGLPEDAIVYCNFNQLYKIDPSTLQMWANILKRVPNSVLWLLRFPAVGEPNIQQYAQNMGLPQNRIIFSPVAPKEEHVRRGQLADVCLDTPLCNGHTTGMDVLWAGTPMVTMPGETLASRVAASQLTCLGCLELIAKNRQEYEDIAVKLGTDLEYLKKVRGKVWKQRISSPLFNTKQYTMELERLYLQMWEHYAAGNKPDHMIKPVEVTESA
Effect on: binding
Technique: phage display NGS
Form: peptide
Tested at: concentration not given
Notes: panning round 2
Reference: input library
Sequence	enrichment fold change
HMPWTHHYAKPYHVG	12.4
SYYRHDHVPQFYNKW	2.97
QQDIYPPHYLIELDI	6
HAMHSHDSDHMTPYR	5.88
HMGMHQVLRIHQIHG	5.89
HQPWPVAQHSHVHHR	5.18
SHPIHHSLIKMKHNH	3.79
HPHPPHPHGFDTHHV	10.6

Set 2
Target: tungstate, free oxyanion
Technique: microfluidic competitive inhibition
Medium: in vitro, cell-free expressed
Tested at: not given
Notes: derived from inhibition constants, unchanged parent 2230 nM
Reading: lower = stronger binding
Parent: PafA, mature enzyme, eGFP fusion (Elizabethkingia meningoseptica, UniProt Q9KJX5); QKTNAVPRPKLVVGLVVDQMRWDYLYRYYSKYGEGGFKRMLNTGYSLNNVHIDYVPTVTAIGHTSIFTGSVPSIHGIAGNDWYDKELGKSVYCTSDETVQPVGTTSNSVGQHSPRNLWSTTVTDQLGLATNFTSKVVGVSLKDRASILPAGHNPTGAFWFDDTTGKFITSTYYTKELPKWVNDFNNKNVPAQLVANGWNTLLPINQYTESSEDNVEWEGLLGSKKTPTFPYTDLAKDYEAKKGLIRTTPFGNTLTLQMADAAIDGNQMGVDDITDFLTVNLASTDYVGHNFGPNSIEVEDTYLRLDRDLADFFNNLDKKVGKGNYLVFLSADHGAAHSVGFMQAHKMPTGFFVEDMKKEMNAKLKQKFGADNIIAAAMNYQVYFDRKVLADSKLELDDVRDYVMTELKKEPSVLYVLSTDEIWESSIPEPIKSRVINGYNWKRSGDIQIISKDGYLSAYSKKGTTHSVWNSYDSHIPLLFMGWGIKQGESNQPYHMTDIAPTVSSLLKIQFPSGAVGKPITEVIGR
Change	oxyanion analog dissociation constant
S295G	2.27 µM
V181G	1.15 µM
N379V	1.9 µM
V416A	2.26 µM
F351V	3.46 µM
F511G	2.24 µM
K135G	2.24 µM
K346G	1.67 µM

Further values, each from its own experiment
SMILES	target	effect on	action	tested at	reference	endpoint	value
O=C1c2ccc(Nc3ccc(F)cc3F)cc2CCc2ccc(OC[C@H](O)CO)cc21	HTR2A (Homo sapiens, UniProt P28223)	cell-free assay		10 µM		inhibition	73.1%
N/C(=N\[N+](=O)[O-])N/N=C\c1ccc(-c2cccc([N+](=O)[O-])c2)o1	PASK (Homo sapiens, UniProt Q96RG2)	enzyme activity	inhibitor	0.5 µM	control	remaining activity	88.4%

For quick reference, copied from above (set 1):
Sequence	enrichment fold change
HQPWPVAQHSHVHHR	5.18
